Assay results from different studies.
Numbered parts are unrelated; each lists some results of a single study. “And” joins repeats or separate records; there may be more than shown.
UniProt P22607, sequence (whole entry, unmodified, looked up): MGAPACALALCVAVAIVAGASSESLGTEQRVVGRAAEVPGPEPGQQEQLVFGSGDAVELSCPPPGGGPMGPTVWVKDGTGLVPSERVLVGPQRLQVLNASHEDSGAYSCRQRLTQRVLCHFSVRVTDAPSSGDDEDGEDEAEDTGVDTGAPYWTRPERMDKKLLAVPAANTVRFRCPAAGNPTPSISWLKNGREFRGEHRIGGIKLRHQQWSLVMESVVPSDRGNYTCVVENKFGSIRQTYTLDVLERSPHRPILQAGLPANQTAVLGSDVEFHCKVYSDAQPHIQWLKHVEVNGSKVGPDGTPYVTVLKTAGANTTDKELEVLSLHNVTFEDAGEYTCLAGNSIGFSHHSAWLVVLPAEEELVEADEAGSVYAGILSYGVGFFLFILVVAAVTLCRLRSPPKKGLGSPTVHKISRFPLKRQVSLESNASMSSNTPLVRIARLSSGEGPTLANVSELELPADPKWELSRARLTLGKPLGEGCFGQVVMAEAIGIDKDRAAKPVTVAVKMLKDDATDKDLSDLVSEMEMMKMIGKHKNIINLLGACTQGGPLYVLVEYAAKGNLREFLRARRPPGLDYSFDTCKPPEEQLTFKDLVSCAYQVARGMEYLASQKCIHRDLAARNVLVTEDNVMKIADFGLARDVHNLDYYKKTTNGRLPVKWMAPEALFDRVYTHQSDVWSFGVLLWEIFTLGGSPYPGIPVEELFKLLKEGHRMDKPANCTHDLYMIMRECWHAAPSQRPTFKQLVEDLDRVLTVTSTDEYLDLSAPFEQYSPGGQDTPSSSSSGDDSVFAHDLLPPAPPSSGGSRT
UniProt P07333, sequence (whole entry, looked up): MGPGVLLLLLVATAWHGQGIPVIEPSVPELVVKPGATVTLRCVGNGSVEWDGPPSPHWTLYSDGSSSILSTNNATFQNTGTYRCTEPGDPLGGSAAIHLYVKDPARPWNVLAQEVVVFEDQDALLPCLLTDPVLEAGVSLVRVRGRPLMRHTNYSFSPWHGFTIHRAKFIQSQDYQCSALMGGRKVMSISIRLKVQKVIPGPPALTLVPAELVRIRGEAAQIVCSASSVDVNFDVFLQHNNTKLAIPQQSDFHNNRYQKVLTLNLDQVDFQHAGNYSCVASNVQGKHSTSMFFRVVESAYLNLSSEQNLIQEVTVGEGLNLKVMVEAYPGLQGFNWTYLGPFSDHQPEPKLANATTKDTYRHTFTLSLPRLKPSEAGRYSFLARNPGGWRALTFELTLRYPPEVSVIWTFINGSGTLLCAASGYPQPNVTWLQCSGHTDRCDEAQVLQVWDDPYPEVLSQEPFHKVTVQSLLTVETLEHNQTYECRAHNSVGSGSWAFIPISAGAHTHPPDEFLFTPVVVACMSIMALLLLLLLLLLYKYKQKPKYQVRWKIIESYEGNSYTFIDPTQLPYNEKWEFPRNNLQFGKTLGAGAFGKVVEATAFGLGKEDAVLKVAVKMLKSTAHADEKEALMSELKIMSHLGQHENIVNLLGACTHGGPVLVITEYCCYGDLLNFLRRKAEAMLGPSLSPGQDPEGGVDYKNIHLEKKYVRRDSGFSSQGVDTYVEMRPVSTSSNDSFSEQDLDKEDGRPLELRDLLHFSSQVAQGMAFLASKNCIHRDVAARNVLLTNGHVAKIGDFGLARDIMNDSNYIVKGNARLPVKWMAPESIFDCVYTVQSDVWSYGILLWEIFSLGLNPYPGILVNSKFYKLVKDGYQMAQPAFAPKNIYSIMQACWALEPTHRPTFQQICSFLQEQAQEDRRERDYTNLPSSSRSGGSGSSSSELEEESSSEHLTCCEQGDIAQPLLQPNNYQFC
UniProt Q9NY57, sequence (whole entry, looked up): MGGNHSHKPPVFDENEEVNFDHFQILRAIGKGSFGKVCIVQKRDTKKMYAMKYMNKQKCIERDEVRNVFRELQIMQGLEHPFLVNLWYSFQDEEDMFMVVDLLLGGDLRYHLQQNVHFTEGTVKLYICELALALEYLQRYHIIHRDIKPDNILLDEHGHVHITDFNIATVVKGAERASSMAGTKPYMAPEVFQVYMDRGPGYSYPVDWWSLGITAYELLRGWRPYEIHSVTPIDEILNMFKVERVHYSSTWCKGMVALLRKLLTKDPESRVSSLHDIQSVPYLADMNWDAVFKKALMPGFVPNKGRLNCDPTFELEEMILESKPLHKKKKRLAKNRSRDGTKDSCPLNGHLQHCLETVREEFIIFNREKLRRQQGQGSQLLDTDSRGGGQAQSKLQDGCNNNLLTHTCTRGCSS
UniProt P36507, sequence (whole entry, looked up): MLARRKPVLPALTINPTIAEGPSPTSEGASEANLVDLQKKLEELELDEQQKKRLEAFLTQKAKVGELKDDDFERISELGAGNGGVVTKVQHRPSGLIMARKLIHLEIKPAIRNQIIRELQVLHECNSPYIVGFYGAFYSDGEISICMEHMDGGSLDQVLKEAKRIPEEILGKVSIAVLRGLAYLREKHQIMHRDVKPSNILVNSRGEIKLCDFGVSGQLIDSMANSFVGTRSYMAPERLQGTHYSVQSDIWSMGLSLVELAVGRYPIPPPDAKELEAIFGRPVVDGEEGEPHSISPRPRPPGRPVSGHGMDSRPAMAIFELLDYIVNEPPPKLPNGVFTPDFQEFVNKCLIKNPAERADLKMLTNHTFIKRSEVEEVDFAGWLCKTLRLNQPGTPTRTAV
UniProt Q9C098, sequence (whole entry, looked up): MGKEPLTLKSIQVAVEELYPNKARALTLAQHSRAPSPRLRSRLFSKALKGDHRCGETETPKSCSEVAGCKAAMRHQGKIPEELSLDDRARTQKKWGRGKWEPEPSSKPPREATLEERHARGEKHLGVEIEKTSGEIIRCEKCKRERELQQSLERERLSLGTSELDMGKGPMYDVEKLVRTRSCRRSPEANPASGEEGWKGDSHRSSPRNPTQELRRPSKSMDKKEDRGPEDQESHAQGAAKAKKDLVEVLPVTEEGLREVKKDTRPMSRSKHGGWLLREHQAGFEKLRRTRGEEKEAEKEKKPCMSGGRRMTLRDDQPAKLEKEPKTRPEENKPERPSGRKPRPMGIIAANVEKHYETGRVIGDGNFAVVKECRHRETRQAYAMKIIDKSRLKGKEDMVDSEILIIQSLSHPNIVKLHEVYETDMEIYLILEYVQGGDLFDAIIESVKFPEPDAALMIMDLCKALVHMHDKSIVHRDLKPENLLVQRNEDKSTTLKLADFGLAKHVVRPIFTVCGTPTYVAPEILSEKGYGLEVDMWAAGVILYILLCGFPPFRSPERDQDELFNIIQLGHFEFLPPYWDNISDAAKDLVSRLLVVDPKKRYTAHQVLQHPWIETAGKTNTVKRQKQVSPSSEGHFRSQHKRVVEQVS
UniProt Q8TBX8, sequence (whole entry, looked up): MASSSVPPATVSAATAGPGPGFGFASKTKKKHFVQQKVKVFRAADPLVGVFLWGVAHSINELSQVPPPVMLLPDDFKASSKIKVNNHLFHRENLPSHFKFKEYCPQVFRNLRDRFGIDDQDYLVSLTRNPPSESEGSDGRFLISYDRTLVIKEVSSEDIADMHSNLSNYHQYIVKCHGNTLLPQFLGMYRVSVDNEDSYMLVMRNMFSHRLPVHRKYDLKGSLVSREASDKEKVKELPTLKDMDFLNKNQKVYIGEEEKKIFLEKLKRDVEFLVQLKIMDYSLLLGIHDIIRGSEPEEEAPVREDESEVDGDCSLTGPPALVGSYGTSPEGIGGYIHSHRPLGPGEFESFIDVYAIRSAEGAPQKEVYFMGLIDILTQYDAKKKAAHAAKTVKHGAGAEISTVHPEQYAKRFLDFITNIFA
UniProt Q6P3R8, sequence (whole entry, looked up): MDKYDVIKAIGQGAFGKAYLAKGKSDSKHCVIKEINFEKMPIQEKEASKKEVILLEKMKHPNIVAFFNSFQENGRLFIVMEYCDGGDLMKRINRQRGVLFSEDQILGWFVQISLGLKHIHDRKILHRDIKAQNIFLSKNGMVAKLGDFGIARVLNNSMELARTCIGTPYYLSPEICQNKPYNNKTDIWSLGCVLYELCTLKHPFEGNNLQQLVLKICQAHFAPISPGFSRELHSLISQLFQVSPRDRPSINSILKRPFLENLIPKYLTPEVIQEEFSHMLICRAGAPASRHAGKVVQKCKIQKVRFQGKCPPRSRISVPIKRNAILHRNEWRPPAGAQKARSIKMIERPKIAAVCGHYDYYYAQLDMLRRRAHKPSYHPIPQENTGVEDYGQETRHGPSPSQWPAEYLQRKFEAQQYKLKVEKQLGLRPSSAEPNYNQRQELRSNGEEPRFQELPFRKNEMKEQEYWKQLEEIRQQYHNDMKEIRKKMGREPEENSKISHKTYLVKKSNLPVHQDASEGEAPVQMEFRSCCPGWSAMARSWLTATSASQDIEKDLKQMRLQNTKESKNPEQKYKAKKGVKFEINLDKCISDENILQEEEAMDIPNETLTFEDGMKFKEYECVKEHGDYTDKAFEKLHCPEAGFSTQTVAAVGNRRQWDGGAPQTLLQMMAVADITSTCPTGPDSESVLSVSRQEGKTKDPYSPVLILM
UniProt P11802, sequence (whole entry, looked up): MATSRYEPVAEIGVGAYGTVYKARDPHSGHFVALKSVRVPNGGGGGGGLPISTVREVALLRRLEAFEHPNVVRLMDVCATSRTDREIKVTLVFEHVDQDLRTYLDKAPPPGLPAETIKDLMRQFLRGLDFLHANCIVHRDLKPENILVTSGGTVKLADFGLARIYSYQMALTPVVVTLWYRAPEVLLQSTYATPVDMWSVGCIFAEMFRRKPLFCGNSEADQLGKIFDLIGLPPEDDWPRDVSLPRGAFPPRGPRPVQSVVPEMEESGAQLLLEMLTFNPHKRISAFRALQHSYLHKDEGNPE

Study 1
Target: Serine/threonine-protein kinase pim-1 (PIM1, Homo sapiens, UniProt P11309)
UniProt P11309, sequence (whole entry, looked up): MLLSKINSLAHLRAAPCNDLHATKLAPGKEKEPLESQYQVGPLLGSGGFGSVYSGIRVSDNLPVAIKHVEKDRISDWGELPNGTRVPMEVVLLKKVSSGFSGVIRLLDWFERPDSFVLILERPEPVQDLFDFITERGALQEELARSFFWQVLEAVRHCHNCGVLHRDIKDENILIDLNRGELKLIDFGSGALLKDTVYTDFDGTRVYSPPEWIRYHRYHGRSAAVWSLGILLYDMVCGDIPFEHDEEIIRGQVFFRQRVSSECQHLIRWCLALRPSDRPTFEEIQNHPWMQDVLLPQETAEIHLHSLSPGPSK
Effect on: enzyme activity
Mode: inhibitor
Concentration: 0.5 µM
Baseline: control
Compound	remaining activity [%]
NC(=O)c1ccc(N(C(N)=O)c2c(F)cccc2F)nc1-c1ccc(F)cc1F	98.8
Cc1ccc(NC2=CC(=O)c3sc(C)nc3C2=O)cc1	96.8
CCc1[nH]c(-c2ccc(OC)cc2)nc1-c1ccncc1	104
N#CC(=C(N)Sc1ccc(N)cc1)c1ccccc1C(F)(F)F	99.7
O=C1Cc2c([nH]c3ccc([N+](=O)[O-])cc23)-c2ccccc2N1	92
Nc1ncnc2c1cnn2-c1ccccc1	99.4
CSc1nc(-c2ccnc(N[C@@H](C)c3ccccc3)c2)c(-c2ccc(F)cc2)[nH]1 (racemic)	91.8
COc1ccc(S(=O)(=O)N(CCO)c2ccccc2CN(C)CC=Cc2ccc(Cl)cc2)cc1	104
CC[n+]1c(/C=C/N(C)c2ccccc2)n(-c2ccccc2)c2ccc(-c3nc4ccccc4s3)cc21	102
Fc1ccc(-c2nc3n(c2-c2ccncc2)CCS3)cc1	104
Oc1ccc(Nc2nc(-c3ccc(Cl)cc3)cs2)cc1	103
Cc1cc(Nc2nc(-c3ccccc3)nc3ccccc23)n[nH]1	83.3

Study 2
Technique: logD(dd/w) and ALogP
Setting: JT method
SMILES	lipophilic permeability efficiency
CC(C)C[C@@H]1NC(=O)[C@H](Cc2cscn2)NC(=O)[C@H](Cc2cscn2)NC(=O)[C@@H](CC(C)C)NC(=O)[C@@H](CCC(=O)N2CCCC2)NC(=O)[C@H](CC(C)C)NC(=O)[C@@H](CC(C)C)NC1=O	2.73
CC(C)C[C@@H]1NC(=O)[C@H](C)NC(=O)[C@H](C)NC(=O)[C@H](CCC(=O)N2CCCC2)NC(=O)[C@H](CC(C)C)NC(=O)[C@H](CC(C)C)NC(=O)[C@@H](C(C)C)NC1=O	1.14
CC(C)C[C@@H]1NC(=O)[C@H](C)NC(=O)[C@H](Cc2cscn2)NC(=O)[C@H](C)NC(=O)[C@@H](CCC(=O)N2CCCC2)NC(=O)[C@H](CC(C)C)NC(=O)[C@@H](CC(C)C)NC1=O	1.97
CC(C)C[C@@H]1NC(=O)[C@H](Cc2cscn2)NC(=O)[C@H](CCC(=O)N2CCCC2)NC(=O)[C@H](C)NC(=O)[C@@H](CCC(=O)N2CCCC2)NC(=O)[C@H](CC(C)C)NC(=O)[C@@H](CC(C)C)NC1=O	2
CC(C)C[C@@H]1NC(=O)[C@H](Cc2cscn2)NC(=O)[C@H](C)NC(=O)[C@H](CC(C)C)NC(=O)[C@@H](CCC(=O)N2CCCC2)NC(=O)[C@H](CC(C)C)NC(=O)[C@@H](CC(C)C)NC1=O	2.05
CC(C)C[C@@H]1NC(=O)[C@H](CC(C)C)NC(=O)[C@@H](CC(C)C)NC(=O)[C@H](C)NC(=O)[C@@H](Cc2cscn2)NC(=O)[C@@H](CC(C)C)NC(=O)[C@H](C)NC1=O	2.39
CC(C)C[C@@H]1NC(=O)[C@H](CC(C)C)NC(=O)[C@@H](C(C)C)NC(=O)[C@@H](C)NC(=O)[C@H](C(C)C)NC(=O)[C@H](Cc2cscn2)NC(=O)[C@H](C)NC1=O	1.64
CC(C)C[C@@H]1NC(=O)[C@@H](C)NC(=O)[C@@H](CC(C)C)NC(=O)[C@H](C)NC(=O)[C@H](C(C)C)NC(=O)[C@H](CC(C)C)NC(=O)[C@@H](CC(C)C)NC1=O	2.51
CC(C)C[C@@H]1NC(=O)[C@H](Cc2cscn2)NC(=O)[C@H](C)NC(=O)[C@H](C)NC(=O)[C@@H](CCC(=O)N2CCCC2)NC(=O)[C@H](CC(C)C)NC(=O)[C@@H](CC(C)C)NC1=O	1.87
CC(C)C[C@@H]1NC(=O)[C@H](CC(C)C)NC(=O)[C@@H](CC(C)C)NC(=O)[C@H](C(C)C)NC(=O)[C@H](C)NC(=O)[C@@H](CC(C)C)NC(=O)[C@H](C)NC1=O	2.43

Study 3
Cell line: mouse MPNST tumor cells
Technique: high-content immunofluorescence imaging
Refers to: nuclear SOX9
Concentration: 10 µM
Time: 12 h
Setting: mean of 2 replicates
Baseline: DMSO control
Reading: higher = more nuclear SOX9
SMILES	nuclear SOX9 intensity
CC(=O)O[C@]1(C(C)=O)CC[C@H]2[C@@H]3C=C(C)C4=CC(=O)CC[C@]4(C)[C@H]3CC[C@@]21C	102 % of DMSO and 99.5 % of DMSO
NC[C@@H]1O[C@H](O[C@H]2[C@@H](O)[C@H](O[C@@H]3[C@@H](O)[C@H](N)C[C@H](N)[C@H]3O[C@H]3O[C@H](CO)[C@@H](O)[C@H](O)[C@H]3N)O[C@@H]2CO)[C@H](N)[C@@H](O)[C@@H]1O	117 % of DMSO and 100 % of DMSO
CN[C@@H]1[C@H](O[C@H]2[C@H](O[C@H]3[C@H](O)[C@@H](O)[C@H](N=C(N)N)[C@@H](O)[C@@H]3N=C(N)N)O[C@@H](C)[C@]2(O)C=O)O[C@@H](CO)[C@H](O)[C@H]1O	94.1 % of DMSO
Nc1nnc(Sc2ncc([N+](=O)[O-])s2)s1	106 % of DMSO
Cc1ccc(C(=O)c2cc(O)c(O)c([N+](=O)[O-])c2)cc1	99 % of DMSO
CCN(CC)C(=O)Nc1ccc(OCC(O)CNC(C)(C)C)c(C(C)=O)c1 (stereo not drawn)	96 % of DMSO
C[C@]12CC[C@@H]3c4ccc(O)cc4CC[C@H]3[C@@H]1CC[C@@H]2O	99.9 % of DMSO

Study 4
Structure (SMILES): Cc1c[nH]c2nccc(Oc3c(F)cc(Nc4cc(Cl)nc(N)n4)cc3F)c12
Effect on: cell-free assay
Technique: competition with immobilised ligand
Concentration: 0.1 µM
target	remaining binding [%]
CSF1R (Homo sapiens, UniProt P07333)	100
PIK3CA (Homo sapiens, UniProt P42336, Q546K)	76
FGFR2 (Homo sapiens, UniProt P21802)	100
MARK2 (Homo sapiens, UniProt Q7KZI7)	100
FGFR3 (Homo sapiens, UniProt P22607, G697C)	100
STK33 (Homo sapiens, UniProt Q9BYT3)	85
MAP3K3 (Homo sapiens, UniProt Q99759)	99
NEK5 (Homo sapiens, UniProt Q6P3R8)	97
DCLK3 (Homo sapiens, UniProt Q9C098)	97
MKNK1 (Homo sapiens, UniProt Q9BUB5)	100
BMPR2 (Homo sapiens, UniProt Q13873)	95
EIF2AK2 (Homo sapiens, UniProt P19525)	100
RPS6KB1 (Homo sapiens, UniProt P23443)	85
STK38L (Homo sapiens, UniProt Q9Y2H1)	87
SYK (Homo sapiens, UniProt P43405)	100
Cyclin-dependent kinase 4, with cyclin D1 (CDK4, Homo sapiens, UniProt P11802)	100
LATS2 (Homo sapiens, UniProt Q9NRM7)	0.7
PIP4K2C (Homo sapiens, UniProt Q8TBX8)	100
CAMK2G (Homo sapiens, UniProt Q13555)	96
STK32B (Homo sapiens, UniProt Q9NY57)	71
MAP2K2 (Homo sapiens, UniProt P36507)	91
PDGFRB (Homo sapiens, UniProt P09619)	83

A few entries again (study 2):
SMILES	lipophilic permeability efficiency
CC(C)C[C@@H]1NC(=O)[C@H](CC(C)C)NC(=O)[C@@H](CC(C)C)NC(=O)[C@H](C)NC(=O)[C@@H](Cc2cscn2)NC(=O)[C@@H](CC(C)C)NC(=O)[C@H](C)NC1=O	2.39
CC(C)C[C@@H]1NC(=O)[C@H](CC(C)C)NC(=O)[C@@H](C(C)C)NC(=O)[C@@H](C)NC(=O)[C@H](C(C)C)NC(=O)[C@H](Cc2cscn2)NC(=O)[C@H](C)NC1=O	1.64
CC(C)C[C@@H]1NC(=O)[C@@H](C)NC(=O)[C@@H](CC(C)C)NC(=O)[C@H](C)NC(=O)[C@H](C(C)C)NC(=O)[C@H](CC(C)C)NC(=O)[C@@H](CC(C)C)NC1=O	2.51
CC(C)C[C@@H]1NC(=O)[C@H](Cc2cscn2)NC(=O)[C@H](C)NC(=O)[C@H](C)NC(=O)[C@@H](CCC(=O)N2CCCC2)NC(=O)[C@H](CC(C)C)NC(=O)[C@@H](CC(C)C)NC1=O	1.87
CC(C)C[C@@H]1NC(=O)[C@H](CC(C)C)NC(=O)[C@@H](CC(C)C)NC(=O)[C@H](C(C)C)NC(=O)[C@H](C)NC(=O)[C@@H](CC(C)C)NC(=O)[C@H](C)NC1=O	2.43
